Results of several laboratories.
Every numbered part comes from another study and shows a few of its results, in no order. Values joined by “and” are separate records of one study, mostly repeats; a detail may differ.
UniProt O43293, sequence (whole entry, looked up): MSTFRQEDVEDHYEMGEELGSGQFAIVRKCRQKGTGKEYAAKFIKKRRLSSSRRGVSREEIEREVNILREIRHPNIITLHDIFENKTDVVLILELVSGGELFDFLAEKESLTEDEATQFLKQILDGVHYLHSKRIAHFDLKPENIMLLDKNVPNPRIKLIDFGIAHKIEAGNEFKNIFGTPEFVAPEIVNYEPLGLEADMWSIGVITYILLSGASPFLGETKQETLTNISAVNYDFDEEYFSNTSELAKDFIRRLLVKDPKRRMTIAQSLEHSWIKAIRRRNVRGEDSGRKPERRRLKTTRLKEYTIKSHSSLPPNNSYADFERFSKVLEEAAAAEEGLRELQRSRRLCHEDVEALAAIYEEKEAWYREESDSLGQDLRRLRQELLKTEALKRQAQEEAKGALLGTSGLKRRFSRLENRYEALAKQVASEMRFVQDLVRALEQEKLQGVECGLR
UniProt O14730, sequence (whole entry, looked up): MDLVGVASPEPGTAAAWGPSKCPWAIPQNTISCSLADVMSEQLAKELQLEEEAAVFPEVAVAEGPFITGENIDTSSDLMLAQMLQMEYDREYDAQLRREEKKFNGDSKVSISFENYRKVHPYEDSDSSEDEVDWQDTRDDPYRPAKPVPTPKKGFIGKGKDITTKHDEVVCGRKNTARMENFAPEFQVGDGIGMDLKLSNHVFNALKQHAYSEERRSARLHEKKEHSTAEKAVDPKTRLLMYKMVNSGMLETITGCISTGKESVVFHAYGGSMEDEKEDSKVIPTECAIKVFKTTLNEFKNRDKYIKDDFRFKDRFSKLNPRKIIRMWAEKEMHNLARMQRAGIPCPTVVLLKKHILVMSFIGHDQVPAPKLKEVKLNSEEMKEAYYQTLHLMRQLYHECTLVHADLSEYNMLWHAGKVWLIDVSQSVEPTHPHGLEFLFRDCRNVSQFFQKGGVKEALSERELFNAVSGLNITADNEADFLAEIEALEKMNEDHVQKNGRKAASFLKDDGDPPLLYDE
UniProt O94921, sequence (whole entry, looked up): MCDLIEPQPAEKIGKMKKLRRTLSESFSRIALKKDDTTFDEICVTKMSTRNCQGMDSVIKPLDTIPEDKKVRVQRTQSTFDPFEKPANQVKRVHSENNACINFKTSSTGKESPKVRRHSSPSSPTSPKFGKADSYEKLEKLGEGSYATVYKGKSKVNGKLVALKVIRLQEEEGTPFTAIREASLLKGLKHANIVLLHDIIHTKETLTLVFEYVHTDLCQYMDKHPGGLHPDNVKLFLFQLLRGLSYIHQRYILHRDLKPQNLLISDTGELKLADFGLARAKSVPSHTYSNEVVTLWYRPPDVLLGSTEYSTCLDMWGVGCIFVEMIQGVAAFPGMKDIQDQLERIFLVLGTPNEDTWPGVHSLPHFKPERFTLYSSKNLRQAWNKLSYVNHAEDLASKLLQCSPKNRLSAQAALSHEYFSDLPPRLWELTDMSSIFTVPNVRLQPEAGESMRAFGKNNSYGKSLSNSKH
UniProt P51957, sequence (whole entry, looked up): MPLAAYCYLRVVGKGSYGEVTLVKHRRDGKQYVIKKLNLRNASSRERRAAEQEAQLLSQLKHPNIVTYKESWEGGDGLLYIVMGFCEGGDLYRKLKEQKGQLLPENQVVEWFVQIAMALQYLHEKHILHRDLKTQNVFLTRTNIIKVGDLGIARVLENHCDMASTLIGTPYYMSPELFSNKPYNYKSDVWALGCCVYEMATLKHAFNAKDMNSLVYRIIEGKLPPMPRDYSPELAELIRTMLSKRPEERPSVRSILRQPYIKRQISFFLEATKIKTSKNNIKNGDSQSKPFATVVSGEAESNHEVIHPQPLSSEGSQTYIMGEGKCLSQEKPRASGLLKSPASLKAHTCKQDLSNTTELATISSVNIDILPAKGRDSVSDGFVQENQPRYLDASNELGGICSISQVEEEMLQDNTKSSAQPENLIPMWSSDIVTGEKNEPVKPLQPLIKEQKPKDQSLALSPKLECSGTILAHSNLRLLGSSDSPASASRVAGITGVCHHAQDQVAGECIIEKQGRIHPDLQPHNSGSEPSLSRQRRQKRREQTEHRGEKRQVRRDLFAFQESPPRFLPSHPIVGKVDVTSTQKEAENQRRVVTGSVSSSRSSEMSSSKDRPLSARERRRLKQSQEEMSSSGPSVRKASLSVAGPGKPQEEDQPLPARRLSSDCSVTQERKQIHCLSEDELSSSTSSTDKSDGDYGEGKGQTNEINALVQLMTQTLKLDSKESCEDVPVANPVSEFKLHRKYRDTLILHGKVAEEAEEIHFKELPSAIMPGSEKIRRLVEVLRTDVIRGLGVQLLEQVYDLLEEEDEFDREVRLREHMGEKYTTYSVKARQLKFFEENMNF
UniProt Q96Q40, sequence (whole entry, looked up): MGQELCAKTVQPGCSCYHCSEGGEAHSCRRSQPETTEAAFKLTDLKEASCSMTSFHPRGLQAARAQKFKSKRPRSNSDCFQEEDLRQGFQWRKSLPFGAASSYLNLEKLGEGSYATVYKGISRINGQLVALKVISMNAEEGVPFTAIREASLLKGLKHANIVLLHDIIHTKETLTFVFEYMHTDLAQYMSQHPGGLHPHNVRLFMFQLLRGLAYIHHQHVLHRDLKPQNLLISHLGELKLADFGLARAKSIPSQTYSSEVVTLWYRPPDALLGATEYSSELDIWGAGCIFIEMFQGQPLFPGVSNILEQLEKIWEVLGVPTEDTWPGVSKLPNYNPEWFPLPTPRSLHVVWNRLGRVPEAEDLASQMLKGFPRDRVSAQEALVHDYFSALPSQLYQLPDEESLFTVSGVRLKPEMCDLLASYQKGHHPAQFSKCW
UniProt P07948, sequence (whole entry, looked up): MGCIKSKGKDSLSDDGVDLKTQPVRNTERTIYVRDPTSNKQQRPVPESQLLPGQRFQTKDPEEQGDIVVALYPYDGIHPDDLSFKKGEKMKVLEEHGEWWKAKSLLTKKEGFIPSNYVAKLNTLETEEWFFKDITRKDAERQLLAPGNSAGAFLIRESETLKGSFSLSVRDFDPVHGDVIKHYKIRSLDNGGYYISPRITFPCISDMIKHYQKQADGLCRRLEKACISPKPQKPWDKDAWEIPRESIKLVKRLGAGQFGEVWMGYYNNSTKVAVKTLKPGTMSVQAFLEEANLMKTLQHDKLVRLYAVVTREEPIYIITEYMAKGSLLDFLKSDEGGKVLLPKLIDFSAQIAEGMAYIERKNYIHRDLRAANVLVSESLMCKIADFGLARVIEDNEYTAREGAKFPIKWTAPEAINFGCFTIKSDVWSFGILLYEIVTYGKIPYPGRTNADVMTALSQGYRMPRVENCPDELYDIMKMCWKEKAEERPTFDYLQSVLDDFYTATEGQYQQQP
UniProt Q8WXR4, sequence (whole entry, looked up): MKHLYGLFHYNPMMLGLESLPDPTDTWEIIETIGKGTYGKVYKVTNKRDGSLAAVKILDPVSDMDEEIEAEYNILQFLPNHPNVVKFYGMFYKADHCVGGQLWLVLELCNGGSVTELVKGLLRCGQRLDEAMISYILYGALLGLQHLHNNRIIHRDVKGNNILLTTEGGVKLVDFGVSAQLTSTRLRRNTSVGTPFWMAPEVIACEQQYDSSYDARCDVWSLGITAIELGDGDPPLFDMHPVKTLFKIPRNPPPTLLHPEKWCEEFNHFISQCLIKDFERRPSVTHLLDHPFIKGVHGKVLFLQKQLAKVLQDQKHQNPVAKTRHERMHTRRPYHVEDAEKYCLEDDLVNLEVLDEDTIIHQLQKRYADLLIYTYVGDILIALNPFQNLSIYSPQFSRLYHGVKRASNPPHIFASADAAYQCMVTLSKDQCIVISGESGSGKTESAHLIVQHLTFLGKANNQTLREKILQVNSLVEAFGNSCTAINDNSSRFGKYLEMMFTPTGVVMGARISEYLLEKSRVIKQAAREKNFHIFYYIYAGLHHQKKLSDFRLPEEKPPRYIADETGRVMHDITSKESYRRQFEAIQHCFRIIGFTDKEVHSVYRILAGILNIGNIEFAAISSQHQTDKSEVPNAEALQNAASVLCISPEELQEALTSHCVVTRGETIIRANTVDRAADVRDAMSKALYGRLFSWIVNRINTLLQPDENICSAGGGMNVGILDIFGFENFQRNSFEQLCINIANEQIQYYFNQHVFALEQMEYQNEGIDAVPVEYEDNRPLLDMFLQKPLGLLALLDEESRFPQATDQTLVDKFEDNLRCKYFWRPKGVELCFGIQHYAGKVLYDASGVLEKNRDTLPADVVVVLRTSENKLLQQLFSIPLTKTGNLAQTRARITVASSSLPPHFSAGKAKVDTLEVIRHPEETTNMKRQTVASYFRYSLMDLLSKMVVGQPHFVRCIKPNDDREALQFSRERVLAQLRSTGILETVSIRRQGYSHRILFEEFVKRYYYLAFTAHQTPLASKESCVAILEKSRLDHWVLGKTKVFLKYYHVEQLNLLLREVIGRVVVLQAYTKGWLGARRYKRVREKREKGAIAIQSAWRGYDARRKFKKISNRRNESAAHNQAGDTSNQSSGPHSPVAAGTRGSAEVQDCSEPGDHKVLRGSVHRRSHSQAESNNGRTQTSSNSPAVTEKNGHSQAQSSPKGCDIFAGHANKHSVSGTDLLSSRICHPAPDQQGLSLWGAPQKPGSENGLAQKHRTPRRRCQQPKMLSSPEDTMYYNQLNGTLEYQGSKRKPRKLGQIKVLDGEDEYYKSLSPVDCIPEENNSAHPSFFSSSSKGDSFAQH

Study 1 — method: competition with immobilised ligand; tested at: 1 µM; measurement: remaining binding
Structure (SMILES): NS(=O)(=O)c1cc(NC(=O)Cc2ccccc2)ccc1Oc1cccc(Cl)c1
CDK15 (Homo sapiens, UniProt Q96Q40); cell-free assay: 88%
INSRR (Homo sapiens, UniProt P14616); cell-free assay: 100%
FLT1 (Homo sapiens, UniProt P17948); cell-free assay: 80%
Myosin-IIIa (MYO3A, Homo sapiens, UniProt Q8NEV4); binding: 100%
Tyrosine-protein kinase ABL1, phosphorylated (ABL1, Homo sapiens, UniProt P00519, Y253F); cell-free assay: 76%
CDK14 (Homo sapiens, UniProt O94921); cell-free assay: 95%
DAPK3 (Homo sapiens, UniProt O43293); cell-free assay: 95%
Cyclin-dependent kinase 4, with cyclin D3 (CDK4, Homo sapiens, UniProt P11802); cell-free assay: 71%
RIOK3 (Homo sapiens, UniProt O14730); cell-free assay: 73%
EIF2AK2 (Homo sapiens, UniProt P19525); cell-free assay: 80%
PRKG2 (Homo sapiens, UniProt Q13237); cell-free assay: 86%
FLT3 (Homo sapiens, UniProt P36888, ITD); cell-free assay: 79%
NEK4 (Homo sapiens, UniProt P51957); cell-free assay: 98%
LYN (Homo sapiens, UniProt P07948); cell-free assay: 99%
FLT3 (Homo sapiens, UniProt P36888, D835Y); cell-free assay: 95%
TNNI3K (Homo sapiens, UniProt Q59H18); cell-free assay: 91%
Myosin-IIIb (MYO3B, Homo sapiens, UniProt Q8WXR4); binding: 100%

Study 2 — observed: enzyme activity; action: inhibitor; tested at: 0.5 µM; reference: control; measurement: remaining activity
Target: Lymphokine-activated killer T-cell-originated protein kinase (PBK, Homo sapiens, UniProt Q96KB5)
Construct (Q96KB5 1-322): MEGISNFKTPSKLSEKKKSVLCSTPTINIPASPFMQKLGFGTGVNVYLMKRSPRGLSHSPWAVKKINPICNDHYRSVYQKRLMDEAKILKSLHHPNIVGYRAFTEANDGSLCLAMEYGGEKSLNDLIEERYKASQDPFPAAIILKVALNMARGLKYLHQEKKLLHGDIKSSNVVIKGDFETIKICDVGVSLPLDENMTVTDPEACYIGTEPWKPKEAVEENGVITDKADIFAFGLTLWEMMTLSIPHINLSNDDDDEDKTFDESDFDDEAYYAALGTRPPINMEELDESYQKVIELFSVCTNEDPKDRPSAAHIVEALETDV
Cc1ccc(S(=O)(=O)/C=C/C#N)cc1: 83.2%
O=C1Nc2ccc(Br)cc2/C1=C/c1cc2c([nH]1)CCCC2: 87.8%
O=C1NC(=O)c2c1c1c3ccccc3[nH]c1n1cncc21: 72.4%
O=C1Cc2c([nH]c3ccc(Br)cc23)-c2ccccc2N1: 99.3%
c1ccc(-c2n[nH]c3c2oc2ccccc23)cc1: 94.8%
COc1cccc(-c2cc(=O)c3ccccc3o2)c1N: 97.6%
Oc1cccc(-c2nc(N3CCOCC3)c3oc4ncccc4c3n2)c1: 88.7%

Study 3 — method: phase 2a trial; species: idiopathic pulmonary fibrosis patients; measurement: patients with eosinophilia
Compound: CC(C)n1cnc(-c2ccc(F)cc2)c1-c1ncc(C(=O)Nc2ccc(N3CCN(C)CC3)cc2)[nH]1
30 mg once daily, adverse event grade 5: 0%
30 mg once daily, adverse event grade 3: 0%
60 mg once daily, adverse event grade 4: 0%
30 mg once daily, adverse event grade 2: 0%

Study 4 — method: protein binding microarray; molecule type: double-stranded DNA, one strand shown; medium: in vitro; tested at: not given; reference: not given; direction: higher = stronger binding; measurement: E-score
Target: Histone acetyltransferase KAT6A, both winged helices, GST fusion (KAT6A, Homo sapiens, UniProt Q92794, residues 1-181)
Notes: 8-mer, flanks averaged, mean of 2 arrays, mostly near background
Target sequence (chain): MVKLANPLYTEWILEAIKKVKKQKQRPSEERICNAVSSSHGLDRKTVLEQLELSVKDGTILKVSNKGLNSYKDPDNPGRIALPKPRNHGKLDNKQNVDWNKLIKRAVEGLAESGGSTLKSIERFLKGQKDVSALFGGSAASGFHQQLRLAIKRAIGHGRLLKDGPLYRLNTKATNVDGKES
ATTAATGA: -0.0604
CTCTGAGC: -0.118
AGCGTTAC: 0.0191
AAGCTACG: -0.0185
AGGGAATC: -0.0776
ACTTACGC: 0.101
ATGTTATG: -0.0341
CCTAAGTC: -0.178

Single results of other studies
ADRB1: Beta-1 adrenergic receptor (ADRB1, Homo sapiens, UniProt P08588)
UniProt P08588, sequence (whole entry, looked up): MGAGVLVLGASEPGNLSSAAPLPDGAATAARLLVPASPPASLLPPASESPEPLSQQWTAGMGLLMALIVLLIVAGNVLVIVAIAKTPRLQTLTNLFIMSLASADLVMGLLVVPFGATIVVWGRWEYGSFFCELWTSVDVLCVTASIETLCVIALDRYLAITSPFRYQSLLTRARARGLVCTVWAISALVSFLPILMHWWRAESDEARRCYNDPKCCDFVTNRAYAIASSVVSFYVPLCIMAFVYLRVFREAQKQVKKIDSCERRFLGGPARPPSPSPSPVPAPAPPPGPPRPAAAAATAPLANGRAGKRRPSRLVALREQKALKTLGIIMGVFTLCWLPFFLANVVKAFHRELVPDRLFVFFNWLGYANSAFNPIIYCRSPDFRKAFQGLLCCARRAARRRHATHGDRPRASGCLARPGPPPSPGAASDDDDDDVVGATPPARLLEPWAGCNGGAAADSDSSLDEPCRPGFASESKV
c1nc2nc(Nc3ccc(N4CCOCC4)cc3)nc(NC3CCCCC3)c2[nH]1  IC50 (ADRB1; cells): ≥ 100 µM
CC(C)S(=O)(=O)c1ccc2nccc(Nc3ccc4sc(C5CCCC5)nc4c3)c2c1.Cl  caspase-3 activity (L929; caspase activity, Ac-DEVD-pNA absorbance; 50 µM, 2 h; higher = more activity): 0.013 a.u. and 0.053 a.u. and 0.016 a.u. and 0.029 a.u.
Cc1cc2c(C(N)=O)c(N)n(-c3c(C)ccc(O)c3C)c2nc1C  IC50 (HCC1569; CDK1 phosphorylation, Jess capillary immunoassay, refers to: CDK1 phospho-Thr14; 24 h): 0.0361 µM
Cc1c(-c2c(-c3ccc(F)o3)sc3ncnc(O[C@@H](Cc4ccccc4OCc4ccnn4CC(F)(F)F)C(=O)O)c23)ccc(OCCN2CCN(C)CC2)c1Cl  IC50 (ADRB1; cells): ≥ 100 µM
